# Assay results of several laboratories.
# Each numbered part is a random draw from the data of one study; scales do not carry over between parts. Positions count from the first letter of the parent shown.

# Set 1 — technique: protein-binding microarray; form: double-stranded DNA, one strand shown; medium: in vitro; concentration: not given; reading: higher = stronger binding
# Target: Protein C-ets-1 (ETS1, Homo sapiens, UniProt P14921, residues 1-441, K379A, full length assumed)
# UniProt P14921, sequence (whole entry, unmodified, looked up): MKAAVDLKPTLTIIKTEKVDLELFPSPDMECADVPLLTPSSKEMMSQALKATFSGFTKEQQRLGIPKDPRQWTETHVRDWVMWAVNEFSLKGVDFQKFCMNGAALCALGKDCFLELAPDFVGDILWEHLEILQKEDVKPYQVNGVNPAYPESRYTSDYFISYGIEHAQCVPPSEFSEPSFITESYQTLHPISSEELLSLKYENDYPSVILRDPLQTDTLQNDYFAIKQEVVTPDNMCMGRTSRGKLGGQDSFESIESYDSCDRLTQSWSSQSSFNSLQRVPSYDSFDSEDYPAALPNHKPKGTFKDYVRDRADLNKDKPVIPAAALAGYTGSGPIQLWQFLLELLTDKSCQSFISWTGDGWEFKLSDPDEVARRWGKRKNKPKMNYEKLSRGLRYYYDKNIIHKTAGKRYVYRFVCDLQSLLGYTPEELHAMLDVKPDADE
# Notes: k-mer, scored over probes, only values ≥0.25
Sequence,E-score
CCGGTCCA,0.301
ATGCGGAA,0.262
TGCAATAA,0.327
CCGGGAAG,0.352
GTATTTGA,0.271
ACCAACAC,0.302
ACCGGCGT,0.304
CCGGTGCC,0.316
CCGGATTC,0.277
GACACTAC,0.293
CCGGTGTC,0.46
GTATATAA,0.258
CCATACCG,0.292
ACCGGTTG,0.42
GCACCGAC,0.314

# Set 2 — technique: RNAcompete; form: RNA; medium: in vitro; concentration: 20 nM; notes: 7-mer, probes averaged, single round; relative to: mean of 7-mers; reading: higher = stronger binding
# Target: PABPC1L2, full length, GST fusion (mouse, UniProt A0ABA7IW68)
# Residues (chain): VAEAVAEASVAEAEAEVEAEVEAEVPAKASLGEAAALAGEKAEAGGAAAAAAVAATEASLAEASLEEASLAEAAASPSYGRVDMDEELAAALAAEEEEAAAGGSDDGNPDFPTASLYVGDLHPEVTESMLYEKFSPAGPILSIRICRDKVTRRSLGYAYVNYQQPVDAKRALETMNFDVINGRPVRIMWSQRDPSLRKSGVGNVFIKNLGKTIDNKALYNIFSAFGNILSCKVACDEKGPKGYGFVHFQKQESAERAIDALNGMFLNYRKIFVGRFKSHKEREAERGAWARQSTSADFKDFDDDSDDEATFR
Sequence,7-mer Z-score
UGUGUUA,-0.277
UCGAAAC,-0.153
GCACGGA,0.124
CAAGCGG,0.0768
AAGCUGA,0.066
AGCUGGC,-0.0264
AUGAUUG,-0.217
GCAAGGC,0.0406
AAAGUCU,0.858
GAGGGUG,0.16
AGAAAGA,2.18
GCAGGGC,0.0714
AUUUGUA,-0.0663
CACUUGG,0.0968
AGAAUCG,-0.05
AAGCUCU,-0.209
GUGGGAG,0.189

# Set 3 — technique: protein binding microarray; form: double-stranded DNA, one strand shown; medium: in vitro; concentration: not given; relative to: not given; reading: higher = stronger binding
# Target: Histone acetyltransferase KAT6A, both winged helices, GST fusion (KAT6A, Homo sapiens, UniProt Q92794, residues 1-181)
# Notes: 8-mer, flanks averaged, mean of 2 arrays, mostly near background
# Residues (chain): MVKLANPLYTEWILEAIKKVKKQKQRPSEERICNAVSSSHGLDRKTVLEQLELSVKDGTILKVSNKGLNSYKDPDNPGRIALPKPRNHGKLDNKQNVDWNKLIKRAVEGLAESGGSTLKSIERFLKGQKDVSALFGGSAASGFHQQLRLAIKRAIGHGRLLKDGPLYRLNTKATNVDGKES
Sequence,E-score
CAGAACAG,-0.137
GCTAGGAA,-0.0847
AACACACG,0.0973
CCAGCGAG,-0.0963
AGATTTCG,0.122
GCATATCA,0.0962
ACGGTCAC,0.1
CACCGACG,0.277
AAACATCC,0.0564
CTGGGGCC,-0.0504
CCGCCATC,0.0911
ATTCAAAG,-0.0518
GTCCACTA,-0.22
AACGATGA,-0.0333
GGCTATAA,0.0193
CCAAGACA,-0.177
CCTCGGGA,0.0267
CGCAGCAC,0.139
GAGGGCGA,0.0274
CTCCCACA,-0.103
AGGAAGAA,-0.137
ACACCCAA,-0.0906
AACCGACT,0.0896
AATACCAG,-0.209
ACAGTTGC,-0.136

# Set 4 — technique: universal PBM; form: double-stranded DNA, one strand shown; medium: in vitro; concentration: 600 nM; reading: higher = stronger binding
# Target: Sal-like protein 4, full length isoform A (SALL4, Homo sapiens, UniProt Q9UJQ4, residues 1-1053)
# UniProt Q9UJQ4, sequence (whole entry, looked up): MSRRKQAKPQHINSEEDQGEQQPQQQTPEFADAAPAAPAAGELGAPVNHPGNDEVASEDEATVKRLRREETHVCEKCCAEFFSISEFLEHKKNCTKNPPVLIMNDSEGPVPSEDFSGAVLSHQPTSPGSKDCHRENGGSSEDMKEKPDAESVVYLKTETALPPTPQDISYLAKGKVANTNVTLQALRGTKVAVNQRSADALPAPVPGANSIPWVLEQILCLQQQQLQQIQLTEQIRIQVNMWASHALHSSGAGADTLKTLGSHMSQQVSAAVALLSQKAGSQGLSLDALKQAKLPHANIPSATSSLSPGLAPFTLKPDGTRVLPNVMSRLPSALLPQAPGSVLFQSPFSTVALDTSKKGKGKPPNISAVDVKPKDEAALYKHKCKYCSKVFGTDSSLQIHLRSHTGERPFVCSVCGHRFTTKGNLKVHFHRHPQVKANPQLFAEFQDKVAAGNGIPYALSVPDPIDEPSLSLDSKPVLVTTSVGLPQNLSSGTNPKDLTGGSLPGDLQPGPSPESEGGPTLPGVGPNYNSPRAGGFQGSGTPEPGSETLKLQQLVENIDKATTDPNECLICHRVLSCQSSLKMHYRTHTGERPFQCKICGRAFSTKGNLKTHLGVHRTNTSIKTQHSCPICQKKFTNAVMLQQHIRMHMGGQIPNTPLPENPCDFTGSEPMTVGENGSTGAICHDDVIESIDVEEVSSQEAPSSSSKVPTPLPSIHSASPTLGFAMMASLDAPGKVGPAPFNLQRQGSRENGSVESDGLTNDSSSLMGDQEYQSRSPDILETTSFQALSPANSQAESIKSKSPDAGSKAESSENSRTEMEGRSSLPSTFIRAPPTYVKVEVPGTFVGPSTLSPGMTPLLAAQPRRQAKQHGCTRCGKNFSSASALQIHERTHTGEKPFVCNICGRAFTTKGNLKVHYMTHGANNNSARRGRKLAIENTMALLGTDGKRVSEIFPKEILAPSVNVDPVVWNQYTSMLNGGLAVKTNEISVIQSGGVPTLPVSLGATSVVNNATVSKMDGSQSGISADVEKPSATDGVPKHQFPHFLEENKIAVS
# Notes: 8-mer, flanks averaged, mean of replicates
Sequence,E-score
CCAAGAGC,-0.283
CAATCCAC,-0.031
CCAATTGG,0.00467
CCTCAACC,-0.215
AATCCCAG,-0.0268
ACAAACCC,0.0318
ACTTGACT,0.0411
ATGCGCCG,-0.152
ACCTGTCA,-0.107
GCAAAGGA,0.0708
AACAAAGT,0.0996
GGTCGTCA,0.00188
CATTACCA,0.107
CCTGCGGC,-0.428
AGCAATAG,-0.0337
TATTCCGA,0.191

# Set 5 — technique: aptamer microarray, sandwich; form: DNA with 2'F-ANA; medium: in vitro; concentration: 200 nM; added: Cy3 exosite-II aptamer, 400 nM; reading: higher = stronger binding; sequence: GGTTGGTGTGGTTGG
# Target: Prothrombin, mature alpha-thrombin (F2, Homo sapiens, UniProt P00734)
# Notes: whole 15-mer aptamer, many near background
Modification,mean fluorescence intensity [a.u.]
2'F-ANA at 3 4 6 10 13 14,179
2'F-ANA at 1 3 4 7 9 10 13 15,59
2'F-ANA at 2 7 8 9 11 12 15,649
2'F-ANA at 3 5 7 8 9 10 11 13 15,59.1
2'F-ANA at 1 5 7 9 10 11 12 13 14,43.7
2'F-ANA at 2 5 9 10 11 15,84.5
2'F-ANA at 4 5 6 7 9 11 13 15,55.9
2'F-ANA at 3 4 5 6 8 10 12,55.6
2'F-ANA at 2 3 6 7 9 10 14 15,251
2'F-ANA at 1 2 4 5 6 11 12 14 15,54.1
2'F-ANA at 2 3 4 5 6 7 8 11 13 14 15,76.4
2'F-ANA at 4 5 6 7 8 9 10 11 12 13 14,60.4
2'F-ANA at 3 4 5 10 13,65.7
2'F-ANA at 5 7 8 10 11 13,59.5
2'F-ANA at 3 8 12 13,1350
2'F-ANA at 3 4 8 10 11 14,218
2'F-ANA at 3 8 10 13 15,479
2'F-ANA at 2 5 8 10 13 14,48.1
2'F-ANA at 2 3 6 9 12 13 14 15,353
2'F-ANA at 1 7 8 10 11 13 14 15,70
2'F-ANA at 3 4 6 7 9 10 13 15,193

# Set 6 — target: CCNF, cyclin fold, Cln2 fusion (human); technique: yeast growth competition, sequencing; medium: yeast; notes: strong parent motif; relative to: not given; reading: higher = stronger binding
# Starting sequence: PLK5 docking peptide (human); IFRKVGQRLLTQC
Variant,normalised enrichment score
IFRKVGQRALTQC [L9A],1.3
IFAKVGQRLLTQC [R3A],2.63
IFRAVGQRLLTQC [K4A],2.4
IFRKVGQRLLAQC [T11A],2.86
IFRKVGQALLTQC [R8A],2.67
AFRKVGQRLLTQC [I1A],1.79
IFRKVGARLLTQC [Q7A],2.71

# Set 7 — technique: RNA Bind-n-Seq; form: RNA; medium: in vitro; concentration: not given; relative to: input RNA pool; reading: higher = stronger binding
# Target: RING finger protein unkempt homolog, zinc fingers 1-6, GST-SBP tag (UNK, Homo sapiens, UniProt Q9C0B0, residues 30-357)
# Notes: RNA with constant flanks, human and mouse sites, ends assumed
# Shared flanks, not repeated: GGGAGUUCUACAGUCCGACGAUC … CAACAGAGGAUUGAGCAUCA
# Target sequence (chain): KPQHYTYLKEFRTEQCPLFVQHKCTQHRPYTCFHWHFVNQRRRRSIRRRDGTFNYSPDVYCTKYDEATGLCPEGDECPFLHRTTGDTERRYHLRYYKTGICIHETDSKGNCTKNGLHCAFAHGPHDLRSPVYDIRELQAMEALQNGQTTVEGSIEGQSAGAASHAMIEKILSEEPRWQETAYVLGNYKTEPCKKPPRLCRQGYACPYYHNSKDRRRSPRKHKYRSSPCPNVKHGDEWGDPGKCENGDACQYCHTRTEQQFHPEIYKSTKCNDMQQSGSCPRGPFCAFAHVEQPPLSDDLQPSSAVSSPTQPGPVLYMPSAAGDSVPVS
Sequence,bound/input enrichment
GCAGGCGGCAUCUAAAGCAGCUUCUAAACAGAGAGAGAUGCUCAUGGAAGAUGUGGGCAGUGAGGAAGAACAAGAAGAGGAGGAUGAGGCACCAUUCCAGGAGAAAGAUUCCGGCAGCGA,0.187 ratio
UAGACGGGAAGGAUUAUAUAGCUUCCUUACCUUUUCAGGUGGCAAAUGUUUGGGCCACUAAAUAUGGCUUGCUGUUUGAACGAUGCAGUUCUUCACAUGAGGUACCUCCAAGUCUACCUA,0.0824 ratio
AAAAUGGAGAAUGGGUCCUUGAAGGCUCUUUUGGAGGCUGAUAAGCAAAAAGCCAUAGAGGCCAGCAGUACUGUGGGGCAGACAGCAGAGAACUUCGAGGUUCAGGAGAUGCUGAAAGUG,0.184 ratio
AGCUUGCCCAGUUGACCCGAAAAAUAGGACUUUUUAGAAUUGCAUUGCCACUUCUAAAAUCCUAGCAAUACUUAGAAUAACACAUCAGUGAGAUAAAUUUUACUCAAUUAUUUUACAAAC,9.24 ratio
CGUGGGAAAACCAGAGCGGAGACAAUGGGGCCGAUGGGCUGGAUGAAGUGUCCUCUUGCUGGUACAAAUAAAAGAUUCCUAAUUAACACAAUUAAGAACACACUGCCCUCCCAUAAAGAG,0.259 ratio
CUAGAGAGAGCCUUCCAGUCUCAAAGAACGCCUGGGAACCAAACGCCUUCCCCUAGAAAUACUUCUGCAUCUGCACUGUCAGCCAGGCCAAAGCACAGCAAACCAAAGCUUCCUGUGAAA,0.926 ratio
AUAUUAAACUGGUAUUUUCAAACAAUAGGAAACUUUUUUUUUUUUUUUUUUUUUUUACAGUUUAGUGUAUCUGGUUUCUACAUGGAAGACUAAACUCAUGCUUAUUGCUAAAUGUGGUCU,11.9 ratio
CCCAGUUGUGACAUGAUGGAACUAAGGCGCCGUUAUCAGAACUUAUAUAUUCCUAGUGACUUUUUUGAUGCUCAGUUUACAUGGGUGGAUGCUUUCCCUUUGUCAAGACCAUUUCAACUG,6.02 ratio
ACUGCUGCCAAAUUUAUUGGUGCAGGUGCUGCAACAGUAGGAGUGGCUGGUUCUGGUGCUGGUAUUGGAACAGUCUUUGGCAGCCUUAUCAUUGGUUAUGCCAGAAACCCUUCGCUGAAG,0.173 ratio
CGGUAUCCAGACAUCCGCAUUGAAGGCGAGAAUUAUCUCCCUCAACCAAUUUAUAGACACAUAGCAUCUUUCCUGUCAGUCUUCAAACUAGUAUUAAUAGGCUUAAUAAUUGUUGGCAAA,93.9 ratio
AGGAAGCAGCAGUUUUGUUGGCAUGUCAAGCUCCAGUUUCCUCAGAGUCAAGCAGAGUACAUAGAAAAAAGAGUACCAGAUGAUAAAACUAUUAAUGAAAUUCUAAAGCCUUACAUCGAU,1.07 ratio

# For quick reference, copied from above (set 5):
Modification,mean fluorescence intensity [a.u.]
2'F-ANA at 2 3 6 9 12 13 14 15,353
2'F-ANA at 4 5 6 7 8 9 10 11 12 13 14,60.4
2'F-ANA at 3 5 7 8 9 10 11 13 15,59.1
2'F-ANA at 2 5 8 10 13 14,48.1
2'F-ANA at 1 2 4 5 6 11 12 14 15,54.1
2'F-ANA at 1 3 4 7 9 10 13 15,59
2'F-ANA at 3 8 10 13 15,479
2'F-ANA at 2 3 4 5 6 7 8 11 13 14 15,76.4
2'F-ANA at 1 7 8 10 11 13 14 15,70
2'F-ANA at 5 7 8 10 11 13,59.5
2'F-ANA at 3 8 12 13,1350
2'F-ANA at 1 5 7 9 10 11 12 13 14,43.7
2'F-ANA at 3 4 5 6 8 10 12,55.6
2'F-ANA at 3 4 6 7 9 10 13 15,193
2'F-ANA at 3 4 8 10 11 14,218
2'F-ANA at 2 5 9 10 11 15,84.5
2'F-ANA at 4 5 6 7 9 11 13 15,55.9
